Results pooled from the literature.
± marks the error that the study gave.
rep main protease: Replicase polyprotein 1ab, main protease (rep, Severe acute respiratory syndrome coronavirus 2, UniProt P0DTD1)
uncharacterized protein: uncharacterized protein (Anopheles coluzzii, UniProt A0A6E8VQK1)
B1: cytochrome c peroxidase H52Q; sequence looked up; chain TTPLVHVASVEKGRSYEDFQKVYNAIALKLREDDEYDNYIGYGPVLVRLAWQTSGTWDKHDNTGGSYGGTYRFKKEFNDPSNAGLQNGFKFLEPIHKEFPWISSGDLFSLGGVTAVQEMQGPKIPWRCGRVDTPEDTTPDNGRLPDADKDADYVRTFFQRLNMNDREVVALMGAHALGKTHLKNSGYEGPWGAANNVFTNEFYLNLLNEDWKLEKNDANNEQWDSKSGYMMLPTDYSLIQDPKYLSIVKEYANDQDKFFKDFSKAFEKLLENGITFPKDAPSPFIFKTLEEQGL
Chain of UniProt P02716 (whole entry, looked up): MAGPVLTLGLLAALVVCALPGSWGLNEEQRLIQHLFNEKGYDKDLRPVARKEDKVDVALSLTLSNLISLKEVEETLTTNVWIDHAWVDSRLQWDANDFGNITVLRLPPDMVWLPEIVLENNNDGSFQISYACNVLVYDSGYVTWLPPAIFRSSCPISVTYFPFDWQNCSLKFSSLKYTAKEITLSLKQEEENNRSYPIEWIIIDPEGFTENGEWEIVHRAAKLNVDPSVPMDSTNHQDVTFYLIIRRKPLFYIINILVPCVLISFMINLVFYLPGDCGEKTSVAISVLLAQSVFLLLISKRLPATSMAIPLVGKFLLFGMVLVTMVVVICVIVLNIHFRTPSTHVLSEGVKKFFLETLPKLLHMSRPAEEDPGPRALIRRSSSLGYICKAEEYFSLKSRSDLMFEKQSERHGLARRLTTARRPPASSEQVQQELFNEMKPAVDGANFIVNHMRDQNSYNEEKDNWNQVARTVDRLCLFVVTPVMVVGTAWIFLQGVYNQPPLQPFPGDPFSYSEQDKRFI
Chain of UniProt P04756 (whole entry, looked up): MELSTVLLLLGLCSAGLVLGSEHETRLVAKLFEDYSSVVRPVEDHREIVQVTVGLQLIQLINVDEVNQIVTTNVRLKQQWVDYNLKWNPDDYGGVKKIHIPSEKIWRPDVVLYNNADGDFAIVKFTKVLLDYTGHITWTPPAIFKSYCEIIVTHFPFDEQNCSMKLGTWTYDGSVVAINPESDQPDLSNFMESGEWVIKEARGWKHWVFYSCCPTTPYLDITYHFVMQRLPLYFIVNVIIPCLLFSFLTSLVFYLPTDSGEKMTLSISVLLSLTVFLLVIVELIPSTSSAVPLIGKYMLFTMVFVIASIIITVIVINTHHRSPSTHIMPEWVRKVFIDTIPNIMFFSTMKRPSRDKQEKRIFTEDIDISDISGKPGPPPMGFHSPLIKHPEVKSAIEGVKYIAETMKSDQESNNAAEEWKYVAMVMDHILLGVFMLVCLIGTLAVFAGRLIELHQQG
Chain of UniProt P20782 (whole entry, looked up): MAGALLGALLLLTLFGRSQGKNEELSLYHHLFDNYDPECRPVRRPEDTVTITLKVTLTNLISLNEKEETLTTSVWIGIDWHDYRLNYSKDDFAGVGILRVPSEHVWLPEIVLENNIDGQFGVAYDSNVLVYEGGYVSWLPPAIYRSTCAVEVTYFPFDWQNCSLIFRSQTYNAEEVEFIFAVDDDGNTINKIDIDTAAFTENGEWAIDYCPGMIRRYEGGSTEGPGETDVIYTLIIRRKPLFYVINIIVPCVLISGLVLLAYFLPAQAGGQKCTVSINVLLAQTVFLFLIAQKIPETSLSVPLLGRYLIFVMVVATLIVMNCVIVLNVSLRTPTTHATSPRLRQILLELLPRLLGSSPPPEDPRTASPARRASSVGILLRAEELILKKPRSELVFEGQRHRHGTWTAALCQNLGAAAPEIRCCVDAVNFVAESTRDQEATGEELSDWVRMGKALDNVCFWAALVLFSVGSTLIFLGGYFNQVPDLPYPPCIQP

`CN1CCCC1c1cc(C(=O)N2C[C@@H](F)C[C@H]2CNC(=O)c2cc3c(=O)[nH]ccn3n2)n[nH]1` (stereo partly drawn) has an inhibition of 14.8% (rep main protease; enzyme activity, inhibitor; 5 µM).
`Cc1ccc(S(=O)(=O)N[C@@H](Cc2ccccc2)C(=O)CCl)cc1` gave an inhibition of 1.24% (rep main protease; reporter gene (Gaussia luciferase), inhibitor; 20 µM).
`CC[C@H](C)[C@H](NC(=O)[C@H](CC(C)C)NC(=O)[C@H](CO)NC(=O)[C@H](Cc1c[nH]cn1)NC(=O)[C@@H](NC(=O)[C@H](CC(C)C)NC(=O)[C@H](CO)NC(=O)[C@@H](NC(=O)[C@H](Cc1ccc(O)cc1)NC(=O)[C@H](CC(N)=O)NC(=O)[C@H](CC(N)=O)NC(=O)[C@@H](NC(=O)[C@H](CCC(=O)O)NC(=O)[C@H](CCCNC(=N)N)NC(=O)[C@H](CC(=O)O)NC(=O)[C@H](Cc1c[nH]c2ccccc12)NC(=O)[C@H](CCC(=O)O)NC(=O)[C@H](CCSC)NC(=O)[C@H](Cc1c[nH]c2ccccc12)NC(C)=O)[C@@H](C)CC)[C@@H](C)O)[C@@H](C)CC)C(=O)N[C@@H](CCC(=O)O)C(=O)N[C@@H](CCC(=O)O)C(=O)N[C@@H](CO)C(=O)N[C@@H](CCC(N)=O)C(=O)N[C@@H](CC(N)=O)C(=O)N[C@@H](CCC(N)=O)C(=O)N[C@@H](CCC(N)=O)C(=O)N[C@@H](CCC(=O)O)C(=O)N[C@@H](CCCCN)C(=O)N[C@@H](CC(N)=O)C(=O)N[C@@H](CCC(=O)O)C(=O)N[C@@H](CCC(N)=O)C(=O)N[C@@H](CCC(=O)O)C(=O)N[C@@H](CC(C)C)C(=O)N[C@@H](CC(C)C)C(=O)NCC(=O)N[C@@H](CO)C(=O)NCC(=O)N[C@@H](CSCC(=O)O[C@H]1CC[C@@]2(C)C(=CC[C@H]3[C@@H]4CC[C@H]([C@H](C)CCCC(C)(C)O)[C@@]4(C)CC[C@@H]32)C1)C(N)=O` has a Kd of 3.91 ± 1.6 µM (membrane binding, di-8-ANEPPS dipole potential; HIV-like lipid LUVs).
`CC[C@H](NC(=O)[C@H](CS(=O)(=O)CC1CC1)N[C@@H](c1ccc(F)cc1)C(F)(F)F)C(=O)C(=O)NC1CC1` gave an inhibition of 1.53% (rep main protease; viral replication, Gluc reporter; SARS-CoV-2; 20 µM).
`Nc1ncnc2c1ncn2[C@H]1C[C@H](O)[C@@H](COP(=O)(O)OP(=O)(O)OP(=O)(O)O)O1` has a Km of 415 ± 263 µM (Gag-Pol polyprotein, reverse transcriptase (gag-pol, Human immunodeficiency virus type 1 group M subtype B, UniProt P04585, K653T); substrate; K66T mutant, together with: G:A mismatched primer template).
`CC[C@H](C)[C@H](NC(=O)[C@H](CC(C)C)NC(=O)[C@H](Cc1c[nH]c2ccccc12)NC(=O)[C@H](CCC(N)=O)NC(=O)[C@@H](NC(=O)[C@H](Cc1ccccc1)NC(=O)[C@H](C)NC(=O)[C@H](CCCCNC(=O)COCCOCCNC(=O)COCCOCCNC(=O)CC[C@H](NC(=O)CCCCCCCCCCCCCCCCCCC(=O)O)C(=O)O)NC(=O)[C@H](CCC(N)=O)NC(=O)[C@H](C)NC(=O)[C@@H](NC(=O)[C@H](CCCCN)NC(=O)[C@H](CC(=O)O)NC(=O)[C@H](CC(C)C)NC(=O)C(C)(C)NC(=O)[C@@H](NC(=O)[C@H](CO)NC(=O)[C@H](Cc1ccc(O)cc1)NC(=O)[C@H](CC(=O)O)NC(=O)[C@H](CO)NC(=O)[C@@H](NC(=O)[C@H](Cc1ccccc1)NC(=O)[C@@H](NC(=O)CNC(=O)[C@H](CCC(=O)O)NC(=O)C(C)(C)NC(=O)[C@@H](N)Cc1ccc(O)cc1)[C@@H](C)O)[C@@H](C)O)[C@@H](C)CC)[C@@H](C)CC)C(C)C)C(=O)N[C@@H](C)C(=O)NCC(=O)NCC(=O)N1CCC[C@H]1C(=O)N[C@@H](CO)C(=O)N[C@@H](CO)C(=O)NCC(=O)N[C@@H](C)C(=O)N1CCC[C@H]1C(=O)N1CCC[C@H]1C(=O)N1CCC[C@H]1C(=O)N[C@@H](CO)C(N)=O` gave a Tmax of 24 h (human, plasma; subcutaneous, 15.0 mg once weekly, week 23, multiple doses).
Under “inhibition of viral RNA”, `Nc1ncnc2c([C@@H]3N[C@H](CO)[C@@H](O)[C@H]3O)c[nH]c12` is recorded as 3.1% (Marburg virus; measured: viral RNA in supernatant; HeLa, Musoke; 0.8 µM).
For `CCOC(=O)CC(SP(=S)(OC)OC)C(=O)OCC` (stereo not drawn), the remaining activity was 105% (uncharacterized protein; enzyme activity, inhibitor; Sf9 cell homogenate; 0.04545 µM, 0.1667 h, together with: α-naphthyl acetate substrate; relative to: no inhibitor).
`Cn1cnc(Cn2c(=O)[nH]/c(=N\c3cc4cn(C)nc4cc3Cl)n(Cc3cc(F)c(F)cc3F)c2=O)n1` — result for “treatment-related TEAE, Severe severity”: 0% (human, severe renal impairment; oral, 375 mg).
`COc1cc2c3cc1Oc1cc(ccc1O)C[C@@H]1c4c(cc(OC)c(O)c4Oc4ccc(cc4)C[C@@H]3N(C)CC2)CC[N+]1(C)C` gave an inhibition of 28% (Chrnd/Chrna1/Chrne (Mus musculus, UniProt P02716+P04756+P20782); end-plate current peak height, two-electrode voltage clamp; mouse hemidiaphragm; 0.1 µM, AChE poisoned).
For `CCN(CC)c1nc(C)cc(OP(=S)(OC)OC)n1`, the remaining activity was 109% (uncharacterized protein; enzyme activity, inhibitor; Sf9 cell homogenate; 0.2294 µM, 0.1667 h, together with: α-naphthyl acetate substrate; relative to: no inhibitor).
`c1cc2c(cc1O[C@H]1OC[C@H]3[C@@H]1CO[C@@H]3c1ccc3c(c1)OCO3)OCO2` has an inhibition of -0.407% (rep main protease; reporter gene (Gaussia luciferase), inhibitor; 20 µM).
`CSCC[C@H](NC(=O)[C@H](CCCNC(=N)N)NC(=O)[C@H](Cc1ccccc1)NC(=O)[C@H](CS)NC(=O)[C@H](C)NC(=O)[C@@H](NC(=O)[C@@H](NC(=O)[C@H](C)NC(=O)[C@H](CCCNC(=N)N)NC(=O)[C@H](CCCNC(=N)N)NC(=O)[C@H](CCCNC(=N)N)NC(=O)[C@H](CCC(N)=O)NC(=O)[C@H](CCCCN)NC(=O)[C@H](CO)NC(=O)[C@H](CC(C)C)NC(=O)[C@H](CC(C)C)NC(=O)[C@H](CCCCN)NC(=O)[C@H](Cc1c[nH]cn1)NC(=O)[C@H](Cc1c[nH]c2ccccc12)NC(=O)[C@@H](NC(=O)[C@H](C)NC(=O)[C@H](CCCCN)NC(=O)[C@H](CCCCN)NC(=O)[C@H](CO)NC(=O)[C@H](CCCCN)NC(C)=O)C(C)C)C(C)C)C(C)C)C(=O)N[C@H](C(=O)N1CCC[C@H]1C(=O)N[C@@H](CC(C)C)C(=O)N[C@@H](Cc1ccc(O)cc1)C(=O)N[C@@H](CC(N)=O)C(N)=O)[C@@H](C)O` has an apparent ΔG2 of -18.85 ± 0.14 kcal/mol (calmodulin 1-148 sites III and IV; calcium binding, Tyr fluorescence titration; 12 µM, pH 7.4, 22 °C, together with: 6 µM calmodulin).
`B1 (cytochrome c peroxidase H52Q)` — result for “cyanide binding rate constant”: 8.4 ± 2.5 M⁻¹ s⁻¹ (haem protein variant; pH 6.0, ionic strength 0.10 M, slow phase).
The kcat of `Nc1nc2c(ncn2[C@H]2C[C@H](O)[C@@H](COP(=O)(O)OP(=O)(O)OP(=O)(O)O)O2)c(=O)[nH]1` is reported as 0.092 ± 0.0095 s⁻¹ (Gag-Pol polyprotein, reverse transcriptase (gag-pol, Human immunodeficiency virus type 1 group M subtype B, UniProt P04585); nucleotide misinsertion, steady-state kinetics; wild-type RT, together with: opposite template T).
For `CC[C@H](C)[C@H](NC(=O)[C@H](CC(C)C)NC(=O)[C@H](Cc1c[nH]c2ccccc12)NC(=O)[C@H](CCC(N)=O)NC(=O)[C@@H](NC(=O)[C@H](Cc1ccccc1)NC(=O)[C@H](C)NC(=O)[C@H](CCCCNC(=O)COCCOCCNC(=O)COCCOCCNC(=O)CC[C@H](NC(=O)CCCCCCCCCCCCCCCCCCC(=O)O)C(=O)O)NC(=O)[C@H](CCC(N)=O)NC(=O)[C@H](C)NC(=O)[C@@H](NC(=O)[C@H](CCCCN)NC(=O)[C@H](CC(=O)O)NC(=O)[C@H](CC(C)C)NC(=O)C(C)(C)NC(=O)[C@@H](NC(=O)[C@H](CO)NC(=O)[C@H](Cc1ccc(O)cc1)NC(=O)[C@H](CC(=O)O)NC(=O)[C@H](CO)NC(=O)[C@@H](NC(=O)[C@H](Cc1ccccc1)NC(=O)[C@@H](NC(=O)CNC(=O)[C@H](CCC(=O)O)NC(=O)C(C)(C)NC(=O)[C@@H](N)Cc1ccc(O)cc1)[C@@H](C)O)[C@@H](C)O)[C@@H](C)CC)[C@@H](C)CC)C(C)C)C(=O)N[C@@H](C)C(=O)NCC(=O)NCC(=O)N1CCC[C@H]1C(=O)N[C@@H](CO)C(=O)N[C@@H](CO)C(=O)NCC(=O)N[C@@H](C)C(=O)N1CCC[C@H]1C(=O)N1CCC[C@H]1C(=O)N1CCC[C@H]1C(=O)N[C@@H](CO)C(N)=O`, “treatment-emergent adverse events” read 16.7% (healthy human; 2.5 mg, single ascending dose).
For `COc1cc(O)cc(OC)c1`, the inhibition was -1.02% (rep main protease; reporter gene (mKate2), inhibitor; 20 µM).
`CNC(=O)[C@@H](NC(=O)[C@H](CC(C)C)[C@H](O)C(=O)NO)C(C)(C)C` — result for “remaining fibrinogen γ chain”: 0.573 (human fibrinogen; SDS-PAGE; Daboia russelii; concentration not given, unit not given, together with: RJ venom; relative to: untreated fibrinogen).
